Experimental data pooled from the literature.
Lines come from different studies, so protocols differ. Values joined by “and” are separate records of one study, mostly repeats; a detail may differ. ± marks the error that the study gave.
HTR2C: 5-hydroxytryptamine receptor 2C (HTR2C, Homo sapiens, UniProt P28335)
Protein kinase C-like 1: Protein kinase C-like 1 (Candida albicans, UniProt P43057)
RFWD3: RFWD3 (Homo sapiens, UniProt Q6PCD5)
WDR55: WD repeat-containing protein 55 (WDR55, Homo sapiens, UniProt Q9H6Y2)
HTR7: 5-hydroxytryptamine receptor 7 (HTR7, Homo sapiens, UniProt P34969)
TOP2A: DNA topoisomerase 2-alpha (TOP2A, Homo sapiens, UniProt P11388)
GUK1: GUK1 (Homo sapiens, UniProt Q16774)
T1: DNA:RNA riboswitch, DNA extensions (Arabidopsis thaliana); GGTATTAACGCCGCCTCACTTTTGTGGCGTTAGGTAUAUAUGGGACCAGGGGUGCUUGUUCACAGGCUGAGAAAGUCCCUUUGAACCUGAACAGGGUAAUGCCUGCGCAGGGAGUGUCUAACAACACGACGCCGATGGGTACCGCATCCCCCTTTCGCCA

The activity of Cc1cc(OCC(=O)NC(C)C)cc(C)c1Cl is reported as 38 ± 14% (Sodium-dependent neutral amino acid transporter B(0)AT1 (SLC6A19, Homo sapiens, UniProt Q695T7); inhibitor, FLIPR membrane potential; CHO-BC cells; 30 µM, added: L-leucine 1.5 mM; baseline: cinromide).
For CCc1cnn2c(NCc3ccc[n+]([O-])c3)cc(N3CCCC[C@H]3CCO)nc12, “chemical shift change” read -0.068 ppm (Bromodomain-containing protein 4 (BRD4, Homo sapiens, UniProt O60885); 19F NMR, measured: tyrosine 118; 24 µM; baseline: free protein).
COc1ccc2c(c1)C(=O)N(CCCN1CCN(c3ccccc3OC)CC1)C2 has an inhibition of 73% (5-hydroxytryptamine receptor 2A (HTR2A, Homo sapiens, UniProt P28223); radioligand binding; concentration not given, added: [3H]ketanserin).
O=C1CC(C(=O)O)NC(=O)N1 (stereo not shown): “flavin reduction rate” 170 ± 12 s⁻¹ (Dihydroorotate dehydrogenase A (fumarate) (pyrDA, Lactococcus lactis subsp. cremoris, UniProt A2RJT9); substrate, stopped-flow; concentration not given, pH 8.5, 4 °C, wild-type enzyme).
CCOc1ccc(NC(=O)O[C@H](Cn2nc(C(C)C)cc2C(C)C)C(C)C)cc1 has an ACh-evoked current of 86 ± 10% (Neuronal acetylcholine receptor; alpha4/beta2, (α4)2(β2)3 stoichiometry (Homo sapiens, UniProt P17787+P43681); two-electrode voltage clamp; Xenopus oocytes; 3 µM, high-sensitivity stoichiometry, added: ACh 10 µM; baseline: ACh alone).
The inhibition of O=C1c2ccccc2CCCN1CCCCN1CCN(c2ccccn2)CC1 is reported as 42.6% (HTR2C; radioligand binding; concentration not given, added: [3H]mesulergine).
For Oc1ccccc1-c1n[nH]cc1-c1ccnc2ccccc12, “log2 fold change” read 0.24 (Protein kinase C-like 1; kinase binding, MIB/MS competition; Candida albicans lysate; 10 µM; baseline: DMSO, negative = stronger binding).
For Nc1ncnc2c1ncn2[C@@H]1O[C@H](COP(=O)(O)OP(=O)(O)OP(=O)(O)O)[C@@H](O)[C@H]1O, the Km was 2400 ± 400 µM (Hexokinase-3 (HK3, Homo sapiens, UniProt P52790, R480W); substrate; mutant R480W, added: glucose 0.5 mM).
CNc1ncc2c(/C=C/C(=O)N3CCC(OC)CC3)nn(Cc3cccc(C(F)(F)F)c3)c2n1 has a remaining activity of 85% (MAP kinase-activated protein kinase 3 (MAPKAPK3, Homo sapiens, UniProt Q16644); kinase activity, inhibitor; 1 µM; baseline: untreated control).
The fraction bound of O=S(=O)(O)C1CCNCC1 is reported as 0 (Sodium- and chloride-dependent taurine transporter (SLC6A6, Homo sapiens, UniProt P31641, Y138A); binding, microscale thermophoresis; 40.3 nM, fitted curve; higher = more binding).
O=C1CC[C@H](N2Cc3cc(N4CCN(CC5CCN(c6ccc([C@@H]7c8ccc(O)cc8CC[C@@H]7c7ccccc7)cc6)CC5)CC4)ccc3C2=O)C(=O)N1 — result for “uterine protein reduction”: 76% (Estrogen receptor (Esr1, Rattus norvegicus, UniProt P06211); degrader; immature Sprague-Dawley rat; oral, 30 mg/kg daily x3, day 4; baseline: vehicle).
COc1cc2c(cc1OC)C(=O)C(CC1CCN(Cc3ccccc3)CC1)C2 (stereo not shown) has an inhibition of -2.2% (HTR2C; radioligand binding; concentration not given, added: [3H]mesulergine).
CC(Oc1ccccc1)C(=O)NCc1ccccn1 (stereo not shown) — result for “log fold enrichment”: -0.126 (RFWD3; binding, affinity selection mass spectrometry; baseline: other proteins in batch).
C=C(CC(=O)O)C(=O)O has a thermal shift of 9.04 °C (Uncharacterized protein (Pelagibacter ubique, UniProt Q4FKX4); differential scanning fluorimetry; Candidatus Pelagibacter ubique; in-house screen).
For CC(C)(C)Cn1c(N)nc2ccc(-c3[nH]c(C(C)(C)C)nc3-c3ccc(F)cc3)nc21, kinase activity read “inactive” (Mitogen-activated protein kinase 12 (MAPK12, Homo sapiens, UniProt P53778); inhibitor; up to 10 µM).
For Cc1ncc(C[n+]2csc(CCOP(=O)(O)OP(=O)(O)O)c2C)c(N)n1, binding read “binds” (T1, DNA:RNA riboswitch, DNA extensions (Arabidopsis thaliana); optical tweezers; direct).
Under “log fold enrichment”, CCCCC[S+]([O-])c1n[nH]c(N)n1 (stereo not shown) is recorded as 0.129 (WDR55; binding, affinity selection mass spectrometry; baseline: other proteins in batch).
With C[C@@H](O)CNC(C)(C)CC(=O)N[C@@H]1CCc2ccccc2N(Cc2ccc(-c3ccccc3-c3nn[nH]n3)cc2)C1=O the Emax was 111 ± 2% (Growth hormone secretagogue receptor type 1 (GHSR, Homo sapiens, UniProt Q92847); SRF-RE reporter gene; HEK293T).
For Oc1ccc(/C=C/c2cc(O)cc(O)c2)cc1, “ΔH of binding” read -12.5 ± 0.196 kcal/mol (O-methyltransferase (Sorghum bicolor, UniProt A0A1B6PFV1); concentration not given, added: MET+).
For Cc1ccnc(C)c1OC[C@H]1CN(CCN2CCc3ccccc32)CCO1, the inhibition was 42.1% (HTR7; radioligand binding; concentration not given, added: [3H]LSD).
With Nc1ccn([C@H]2C[C@H](O)[C@@H](COP(=O)(O)OP(=O)(O)OP(=O)(O)O)O2)c(=O)n1 the Km was 0.013 µM (Gag-Pol polyprotein, reverse transcriptase (gag-pol, Human immunodeficiency virus type 1 group M subtype B, UniProt P04585); nucleotide incorporation, substrate; HIV-1; added: RNA template).
Cc1ccc(N2CC(C(N)=O)CC2=O)cc1 (stereo not shown) — result for “log fold enrichment”: -0.00394 (WDR55; binding, affinity selection mass spectrometry; baseline: other proteins in batch).
CCC1(O)CCCN(C(=O)c2ccc(-c3ccc(F)c(NC(=O)CCl)c3)cc2)C1 (stereo not shown) has a protein adduct of 0% (DNA dC->dU-editing enzyme APOBEC-3B, C-terminal domain (Homo sapiens, UniProt Q9UH17); covalent modifier, intact protein mass spectrometry, measured: adduct +26104 Da; 25 µM, 3 h, 1-fold molar excess).
N#Cc1ccc2c(-c3ccncc3)c(-c3ccc(F)cc3)nn2c1 — result for “log2 fold change”: -0.0562 (Protein kinase C-like 1; kinase binding, competitor, MIB/MS competition, measured: PKC1; Candida albicans cell lysate; 1 µM; baseline: DMSO).
O=C(O)c1ccc(Nc2ncc3c(n2)-c2ccc(Cl)cc2C(c2c(F)cccc2F)=NC3)cc1 has a remaining activity of 6% (Flt4(h); kinase activity; 1 µM).
Under “probe labelling inhibition”, Cc1cc(-c2ccnc3[nH]cc(F)c23)cc(F)c1[C@@]1(O)[C@H](C)CN(C(=O)CN)C[C@@H]1C is recorded as 34.8% (Aurora kinase B (AURKB, Homo sapiens, UniProt Q96GD4); ATP/ADP probe binding, KiNativ; HEK293T lysate; 10 µM, Lys1 peptide).
For NCCCS(=O)(=O)O, “normalised MST signal” read -0.0122 (Sodium- and chloride-dependent taurine transporter (SLC6A6, Homo sapiens, UniProt P31641, G62A); binding, microscale thermophoresis; 1.95 µM, room temperature, added: 50 nM labelled protein; higher = more binding).
Nc1ccc2cc3ccc(N)cc3nc2c1 — result for “binding Gibbs energy”: -5.712 ± 0.0239 kcal/mol (Chymotrypsinogen A, activated (alpha-chymotrypsin) (Bos taurus, UniProt P00766); isothermal titration calorimetry; 25 °C, added: 0.5 M N,N-dimethylglycine).
Nc1nc2c(ncn2[C@@H]2O[C@H](COP(=O)(O)O)[C@@H](O)[C@H]2O)c(=O)[nH]1 has a reaction rate of 0.696 s⁻¹ and -0.00766 s⁻¹ and -0.712 s⁻¹ (GUK1 (Homo sapiens, UniProt Q16774, R44A); enzyme activity, NADH-coupled; 1000 µM).
For O=c1nc(SCc2cc(F)cc(C(F)(F)F)c2)nc(SCc2ccc3sccc3c2)[nH]1, “ATP hydrolysis rate” read 1.9 µM/min and 1.74 µM/min (TOP2A; ATPase activity; 3.9 µM, added: ATP 0.5 mM).
With CCCCCC(O)C(CC=O)SC[C@H](NC(C)=O)C(=O)O (stereo partly shown) the kcat was 0.27 s⁻¹ (N-acyl-aromatic-L-amino acid amidohydrolase (carboxylate-forming) (Acy3, Mus musculus, UniProt Q91XE4); substrate, fluorescamine; without Co2+).
The inhibition of Clc1cncc(OC[C@H]2CN(CCN3CCc4ccccc43)CCO2)c1 is reported as 42.4% (HTR7; radioligand binding; concentration not given, added: [3H]LSD).
With C=CC(=O)N1CCC(COCC(=O)N2CCN(c3nc(-c4cnc(N)nc4C(F)F)nc(N4CCOC[C@@H]4C)n3)CC2)CC1 the remaining binding was 100% (Dual specificity protein kinase CLK4 (CLK4, Homo sapiens, UniProt Q9HAZ1); KINOMEscan; 1 µM).
For O=c1nc(SCc2cc(F)cc(C(F)(F)F)c2)nc(SCc2csc3ccc(Cl)cc23)[nH]1, the linear DNA was 0% (TOP2A; DNA cleavage; 1.95 µM, replicate 1).
Cc1cccc(N2CC(C(=O)O)CC2=O)c1 (stereo not shown): “log fold enrichment” -0.0706 (RFWD3; binding, affinity selection mass spectrometry; baseline: other proteins in batch).
For Nc1ncnc2c1ncn2[C@@H]1O[C@H](COP(=O)(O)CP(=O)(O)OP(=O)(O)O)[C@@H](O)[C@H]1O, the calcium influx was 83.8% and 100% (P2X purinoceptor 1 (P2RX1, Homo sapiens, UniProt P51575); calcium influx; 1 µM; baseline: ionomycin response).
CC[C@@H]1[C@H](F)C(=O)N[C@@H]1COc1nccc2cc(C(N)=O)c(OC)cc12 has an inhibition of 0.757% (Tyrosine-protein kinase Fer (FER, Homo sapiens, UniProt P16591); ATP-site probe binding, ActivX profiling; THP-1 cell lysate; 0.04 mM, Lys1 site).
CCN1CCC[C@H]1CNC(=O)c1c(O)c(Cl)cc(Cl)c1OC — result for “log2 fold change”: 0.647 (ADGRG2 (Homo sapiens, UniProt Q8IZP9); β-arrestin recruitment, TANGO luminescence, measured: GPR64; concentration not given; baseline: basal luminescence).
With Nc1ncnc2c1ncn2[C@@H]1O[C@H](CO[P@](=O)(O)O[P@](=O)(O)O[P@@](=O)(O)S)[C@@H](O)[C@H]1O the ΔH was -1.8 kcal/mol (GUK1; ITC; molar ratio 0.297).
C[C@H](O)c1cnc(NS(=O)(=O)c2ccc(Cl)c(Cl)c2)nc1 gave a Vmax of 0.23 nM NADH/s/nM enzyme (17-beta-hydroxysteroid dehydrogenase 13 (Homo sapiens, UniProt Q7Z5P4); substrate, NADH fluorescence).
CC(=O)NCCc1c[nH]c2ccc(O)cc12 gave a Vmax of 32.4 ± 4.63 nmol/min/mg (Sulfotransferase 1C4 (SULT1C4, Homo sapiens, UniProt O75897); sulfation, substrate; 10 µM, pH 7.0, substrate 1).
With N[C@@H](CCC(=O)O)C(=O)O the reversal potential was 4.1 ± 1.9 mV (uncharacterized protein (Ixodes scapularis, UniProt A0A0N9E2I2); two-electrode voltage clamp; Xenopus oocytes; extracellular Cl- 37.6 mM).
For CCCCC[C@H](O)/C=C/[C@H]1[C@H](O)CC(=O)[C@@H]1C/C=C\CCCC(=O)O, the Emax was 52.5 ± 4.38% (Prostaglandin E2 receptor EP1 subtype (PTGER1, Homo sapiens, UniProt P34995, F334A/G92A); IP1 accumulation, agonist; AD293; 1 h; baseline: wild type receptor).
With COc1cc(C(=O)NS(=O)(=O)c2ccccc2C)ccc1Cc1cn(C)c2ccc(NC(=O)OC3CCCC3)cc12 the Hill coefficient was 1.23 (LRRC8A/LRRC8C (Homo sapiens, UniProt Q8IWT6+Q8TDW0, E6A); whole-cell patch clamp; HCT116 LRRC8-/- transfected; at -100 mV).
The reaction velocity of [Cl-].[K+] is reported as -0.024 µM/s and -0.0215 µM/s and -0.0362 µM/s (GUK1; enzyme activity, NADH-coupled; 150 mM).
For CC1(C)CC2(C)OC(=O)NC2(C)c2ccccc21 (stereo not shown), “log fold enrichment” read 0.0681 (RFWD3; binding, affinity selection mass spectrometry; baseline: other proteins in batch).
For C[C@]12C[C@H](O)[C@H]3[C@@H](CCC4=CC(=O)CC[C@@]43C)[C@@H]1CC[C@@H]2C(=O)CO, “18-hydroxylation product formation rate” read 12.2 ± 1 min⁻¹ (Cytochrome P450 11B2, mitochondrial (CYP11B2, Homo sapiens, UniProt P19099); substrate; 100 µM, 37 °C, phospholipid vesicles).
For C[C@H]1O[C@H](O[C@H]2[C@H](O)[C@@H](O)[C@@H](O[C@H]3[C@H](O)[C@@H](O)C(O)O[C@@H]3CO)O[C@@H]2CO)[C@H](O)[C@@H](O)[C@@H]1N[C@H]1C=C(CO)[C@@H](O)[C@H](O)[C@H]1O (stereo partly shown), the Ki was 0.123 ± 0.0092 µM (Glycoside hydrolase family 13 protein (Bacteroides ovatus, UniProt A0ABU3INP3); uncompetitive inhibitor; pH 7.0, added: pNP-G6 substrate).
COc1cc(O)c2c(c1)oc(=O)c1c3cc(O)c(O)cc3oc21 has a ΔH of -25 kcal/mol (Alpha-glucosidase MAL12 (MAL12, Saccharomyces cerevisiae S288c, UniProt P53341); fluorescence quenching; 310 K).
